Measured values collected from several papers.
A part holds a random share of what one study measured.

Block 1 — technique: RNA Bind-n-Seq; molecule type: RNA; matrix: in vitro; concentration: 1 µM; setting: whole 134-nt RNA, ends assumed; with: 150 mM KCl; reference: input library; direction: higher = stronger binding; endpoint: log2 enrichment
Target: Ras GTPase-activating protein-binding protein 1, RRM domain (G3BP1, Homo sapiens, UniProt Q13283)
Chain of UniProt Q13283 (whole entry, looked up): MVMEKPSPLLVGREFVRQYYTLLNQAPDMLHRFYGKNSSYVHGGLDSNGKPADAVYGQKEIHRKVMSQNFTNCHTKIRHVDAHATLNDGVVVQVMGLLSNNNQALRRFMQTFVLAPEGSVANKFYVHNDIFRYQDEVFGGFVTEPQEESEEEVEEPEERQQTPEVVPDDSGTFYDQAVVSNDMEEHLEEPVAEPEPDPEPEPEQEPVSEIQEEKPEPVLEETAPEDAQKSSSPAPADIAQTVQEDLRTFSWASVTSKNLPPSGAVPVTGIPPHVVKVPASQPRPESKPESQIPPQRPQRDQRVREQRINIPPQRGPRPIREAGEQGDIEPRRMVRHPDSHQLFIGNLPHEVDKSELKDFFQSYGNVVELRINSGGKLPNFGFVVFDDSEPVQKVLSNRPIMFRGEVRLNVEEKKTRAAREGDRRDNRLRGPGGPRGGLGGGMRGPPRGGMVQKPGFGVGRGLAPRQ
Shared flanks, not repeated: GGGAGUUCUACAGUCCGACGAUC … UGGAAUUCUCGGGUGUCAAGG
AGUCCUGUGCUACACAUCGUAUGUACCGAAUCGGGGAAAGGGGAAAAAGGGGAGGGGAAAGUAUUAUGUUACGCCGUUCGGAUCUGCACU: 1.45
ACUGGACCAGAUUGUUGAAAAAGGAAGACCAGCUCCUGGCUUCCAUCAUGGCGAUGGACCGGGAAAUGCAGUUCAAGAAAUCAUGAUUCC: -0.106
UCCUGUGCUACACAUCGUAUGUACCGAAUCGGGGUUUGGGGAAAGGGGAAAAAAAGGGGAAAGUAUUAUGUUACGCCGUUCGGAUCUGCA: 0.758
CCUCAAGUCCUGUGCUACACAUCGUAUGUACCGAAUCGGGAGGGAGGGGAGGGAAAGUAUUAUGUUACGCCGUUCGGAUCUGCACUUCCA: 0.919
GUCCUGUGCUACACAUCGUAUGUACCGAAUCGGGAAAAAAAGGGAAAAAGGGUUUGGGAAAGUAUUAUGUUACGCCGUUCGGAUCUGCAC: 0.0233
GCAGGAAGUAAAAACAAAUGGAAAUGCUUCGGAUAGUGGCAGGGGUGGGGGUUGCUAAGGAAAGGGUGGGCUGGGAGUGGGUAAAGAGUU: 1.19
ACCAUGCAGGUGGGCAUCUUUGGGAAGUGGGGCAAGGGGGGGAUAGGGAGGGGUGUAACACUUUGGGAACAGGUGGUCCCAGGUCGUUUC: 0.731
GCAGGAAGUAAAAACAAAUGGAAAUGCUUCGGAUAGUGGCAGGGGUGGGGGUUGCUAAGGAAAGGGUGGGAUGGGAGUGGGUAAAGAGCU: 1
UCCUGUGCUACACAUCGUAUGUACCGAAUCGGGGCCCCCGGGGCCCCCGGCCCCCGGGGAAAGUAUUAUGUUACGCCGUUCGGAUCUGCA: -0.831
CCUGUGCUACACAUCGUAUGUACCGAAUCGGGCCCCCCCGGCCCCCCCGGCCCCCCCGGGGAAAGUAUUAUGUUACGCCGUUCGGAUCUG: -0.653
CUGUGCUACACAUCGUAUGUACCGAAUCGGAAAAAAAGGGGAAAAAAAGGAAAAAAAGGGGAAAGUAUUAUGUUACGCCGUUCGGAUCUG: 0.1
GGCACAGGUGCCCGACCAUACACUGGGAAAGUUGGUGCUGAGGAUGCCGAUGGGAUUGACAUGGCCUACCGGGUGCUGGCUGACCACGCU: -0.371
AGUCCUGUGCUACACAUCGUAUGUACCGAAUCGGAAAAAGGUUUUUGGUUUUUUUGGAAAGUAUUAUGUUACGCCGUUCGGAUCUGCACU: -0.343
AGUCCUGUGCUACACAUCGUAUGUACCGAAUCGGGGAAAAGGGGAAAAGGAAAAGGGAAAGUAUUAUGUUACGCCGUUCGGAUCUGCACU: -0.104

Block 2 — technique: RNA Bind-n-Seq; molecule type: RNA; matrix: in vitro; concentration: not given; reference: input RNA pool; direction: higher = stronger binding; endpoint: bound/input enrichment
Target: RING finger protein unkempt homolog, zinc fingers 1-6, GST-SBP tag (UNK, Homo sapiens, UniProt Q9C0B0, residues 30-357)
Chain of UniProt Q9C0B0 (30-357, looked up): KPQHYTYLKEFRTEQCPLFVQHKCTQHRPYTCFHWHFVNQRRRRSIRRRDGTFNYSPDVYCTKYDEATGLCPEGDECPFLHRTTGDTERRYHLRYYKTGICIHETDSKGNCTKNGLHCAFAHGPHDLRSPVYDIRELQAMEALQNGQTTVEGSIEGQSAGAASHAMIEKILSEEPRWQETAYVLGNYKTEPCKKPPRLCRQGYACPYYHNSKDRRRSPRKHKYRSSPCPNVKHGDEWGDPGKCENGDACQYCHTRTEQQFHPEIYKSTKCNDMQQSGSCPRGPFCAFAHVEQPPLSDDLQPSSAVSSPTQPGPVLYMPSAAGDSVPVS
Setting: RNA with constant flanks, human and mouse sites, ends assumed
Shared flanks, not repeated: GGGAGUUCUACAGUCCGACGAUC … CAACAGAGGAUUGAGCAUCA
UGAGGUUGAUAUGUCAGACCUCUCCCCAGAGGAGCAGUGGAGGGUCGAACAUGCUCGAAUGCAUGCCAAACAUCGUGGCCACGAAGCCAUGCACGCUGAAAUGGUCCUCAUCCUCAUUGC: 0.0523 ratio
AAUAUGGCCAAACAGAUUGGAGCAGCUACUUAUAUCGAAUGCUCAGCUUUACAGUCGGAAAAUAGCGUCAGAGACAUUUUUCACGUUGCCACCUUGGCAUGUGUAAAUAAGACAAAUAAA: 0.304 ratio
GGUGUCUGUGCUCAAAAGACUGCCUUCUCCAGUGCCCAGUGUAUGAGUGUGUGCCCUGUGCCCUUGUCCCUCACUCCCCACAUGCUGGACGUAGCCCUCUUCCUCGCACCCCUGGGAGGG: 0.209 ratio
UCACUUGAAAAUAAUGAAACAUUAGAAAGCAUAAUGAAUACCCUAGAGAGUGAAGAAGACUUUAGAAAAUAUUUUUAUUACUUGGAAGGAUCCAAAGAUGCUCUCCUUUGUGGUUUCAGC: 11.3 ratio
AUGGAGAAGGAUUCUCUGCCCCGCUUUGUGCGCUCUGAAUUUUAUAAGGAGCUAAUCAAGUAGUCAUCUGGUCAGGCUUCCAAAAGUUGCCCUGUGAGUUGAGUUACAUCCUUUGUAGCA: 0.176 ratio
AGGAUAGUAUUGGUUGCUAUGGAAACCUGGGCGACUGACAACAAGUUUGCCAUAUCUGAAAAUCCAUUGAUCACCCUACGUGAGUUUAUGAAAUACAGGAGGGAUUUUAUCAAAGAGAAA: 0.16 ratio
ACUGAAGACAAACUUUAUAAUCUCCUGCUCUUGAGAAUGUGCCGAUAUGUCAAAAUAUCUACUGAAACUGAAGAAACUGAAGGAUCCCUACACUGCUGUAAGGACCAAAAUAUUAAUGGG: 0.0988 ratio
CUCUUUGAAUCAUUCAAGAGUUUUGAAGGUCUCUUUUAUUUUCUGGGGUCCAUUGUUAACUUUAGUCAGGACCCAGAUGUGCACUUUAAAUAUAUUCAGGCGGCUUGCAAGACUGGGCAA: 0.68 ratio
GUCCUACAUAGAACGGUCCCUUCAGUUACCAUUCUGAUUGCUCUAUGCUGCUUUCCUCCUCUUAAAGUUUCAUGAGCUCUUGGGUUAAAUGGUUUGUUAUGAGCAGGCUUUCCAUUACUC: 0.212 ratio
CAUGUUUAUAAUGUGCACAGAAAAAGCUUGAGAAUGAUAAUUUUGGUUUAAAUGUGCUGGUUAGUUGAUGUUAUGACUACUUUAAAUUUUAAGGAUUGUGACACACUCCUACUAUUGAAA: 0.479 ratio
AAUGAAACUGCAGAAAAAACCCUGGGAGUCCUGGCAGAUGAAGACAACACAUUGCAACAAAAUAGCAGCAGCAGAAAUACCAGCUACAGCAGUGCAGUGCAAAAAGAAAUCACACUGCCU: 0.191 ratio

Block 3 — technique: RNA Bind-n-Seq; molecule type: RNA; matrix: in vitro; concentration: 365 nM; reference: no-protein control; direction: higher = stronger binding; endpoint: RBNS enrichment (R)
Target: RNA binding protein fox-1 homolog 2, RRM domain, GST-SBP tag (RBFOX2, Homo sapiens, UniProt O43251-10, residues 100-194)
Setting: natural RNA segment, single round, ends assumed
Shared flanks, not repeated: GGGAGUUCUACAGUCCGACGAUC … UGGAAUUCUCGGGUGCCAA
Residues (chain): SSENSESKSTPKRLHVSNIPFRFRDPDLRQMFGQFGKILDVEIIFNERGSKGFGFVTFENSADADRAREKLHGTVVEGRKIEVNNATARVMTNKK
AACUUUGUACUGUACGUCACAGUGAUGAGUGUGACAGCUCAGCUCUUUGAUUUCAUAGUGAGUUUUCUAAAAGACCAGCCGACUAGCUUUUGCAGACUUUGAACAGAACU: 0.306
UUAAUCUGCUAUGAAUCAGUACCCAGAUGUUUAAUUACUGUACUUAUUAAAUCAUGAGGGCAAAAGAGUGUAGAAUGGAAAAAAGUCUCUUGUAUCUAGAUACUUUAAAU: 0.37
AUAAACAUGUUAAAUGCAGGAUAUUUCUGCUUGGGGCAUCUUUGUGAUUUGUACUUUCCUACAAUUUAGCACUUUAACUGACAAUGAUGGGGUUUAAACAUUUGACAGCC: 0.55
AAGGCUUUGCGGCCUGCGCAGACUAUAUCCUGCUUCAGACUAGAUACAAUUGCCCCUUUUUAUAUAUACACCUCCACAAGACAUGCGUAUUAAACAGAUUGUCUCAUCGU: 0.304
AAAAUUGAUGAUAUCUUAGGGUCAGAAUUGCCCUUUUUUUUUAUUUUGAAUGGGAAGUUCUCACUAAAACAAUCCUGAGAUUUCUUAAUUUCAUGGUUCUUUAAAUAUUA: 0.755
ACCUGCUGGAAGCUGCCAGCUGCCCGGCUGGCAAUGGUGUGAGUGUCUUGGCCCUGUCCCUGCCCUGGGGUCCAGCAGGUCAUCCCUCCCUUCUUCUCUCUCCUUUGGCG: 0.556
UCUCGCCUGGACCCAAGAGAGGCGACAGCUGUGGCUGGGGCUCUUGGUUUCCAGAGGGUCUGGACUGGUUUGGGUGCUUUAAAAUAGAUAUUUAGUUCAGUGGUGCUUAU: 0.916
UGACCUCAGGUGAUCCUCCCGCCUCAGCCUUCCAAAGUGCUGGGAUUACAAGCAUGAGCCACCGCACCCGGCCUCACAGUGACAGAUUCUGAGAAACAGCAUGCAAAACA: 35.2
GCAUCUAUUUUCCAUAUAGUCAUCAAGAGACCAUUUUAUAAAACAUGGUAAGACCCUUUUUAAAACAAACUCCAGGCCCUUGGUUGCGGGUCGCUGGGUUAUUGGGGCAG: 0.906
AAGCUGCCCGGGAGGGUGGGUGCAGACACAGGCUGAGGACCAGCCCUGGCCCUGCCCCGCCAUCUGCUUUCACCAAGCUGUCUCUCCACCGUGGCUUCCCUUCUCCCUCC: 0.37
UAUUUGAGUUUAUACAGACCUAAAUUUUAAAAUCUGUACAUAUAUUAUUUUGAUGUAUUAAGAUGAAUAUUGCUGAUUUAAAUUUUAUUUAUGCACAUACUUAAAGGACA: 0.517
CACAUGUUCUUUCUUUUCCUGAGUGAAAAGCAAAGGUCCCACGGUGUGUGCUGUGGUGCACCGCCUGGCUUUGGGGGUCCCGGAGGCAGGCUGCCUAGACUCACAGCCUC: 0.203

Block 4 — technique: protein-binding microarray; molecule type: double-stranded DNA, one strand shown; matrix: in vitro; concentration: 250 nM; setting: 60-bp whole probe; with: salmon DNA 0.4 mg/ml; reference: random background probes; direction: higher = stronger binding; endpoint: log fluorescence; shared flanks, not repeated: GCCTAGCAC … GTCTTGATTCGCTTGACGCTGCTG
Target: Interferon regulatory factor 5, full length, phosphomimetic (IRF5, Homo sapiens, UniProt Q13568-2, residues 1-514, K96S/S451D/S453D/S456D/S462D)
TCAGTTCTTTTTTTCAAACTGTGCTAG: 0.697 z-score
TTAGAATTGGGGACTGGATTAGTGCTA: -0.125 z-score
TTAGATTTCGGGTTGCGATTAGTGCTA: 5.33 z-score
TTGTCTCCCCCATCTTGTTCCGTGCTA: 0.223 z-score
TTAGGTCTCCATATCCTTTAGTGCTAG: -0.131 z-score
ATCCTTGTCCCTCCGGGAGCGTGCTAG: -0.366 z-score
TCATATTCAGGTATATAACTGTGCTAG: 0.524 z-score
TCATTTTTTTCTAACTAACTGTGCTAG: 1.25 z-score
GAAGTTCTTTTTTTCAAGAAGTGCTAG: 0.479 z-score
GACGGAATCGGTATCGGGACGTGCTAG: 1.47 z-score
GACGATCTCAGATTGGAGACGTGCTAG: -0.382 z-score
TGAGATATCGGGACTGGATTAGTGCTA: 0.72 z-score
TTAGATTTCAGACTGCATTAGTGCTAG: 0.58 z-score
AGACAGAAGGGAAACAGGTTGGTGCTA: 0.0905 z-score
GACGGTTTCCTTCTCCTTACGTGCTAG: 1.09 z-score
TTAGGACTGGGGTATCGGTGAGTGCTA: 0.734 z-score
AACGGTTTCGACACTGGGGACGTGCTA: 5.11 z-score
ATAGGTATCGGGTATCGGTTAGTGCTA: 6.73 z-score
TTAGGTCTGGACTATCGGTTAGTGCTA: 5.18 z-score
TTCGGTTTCCTTTCCCTTTAGTGCTAG: 2.95 z-score
GACGGTATCGGGTTTCGGGATGTGCTA: 5.11 z-score
TCATAAAATGGACACTGTACTGTGCTA: 0.635 z-score
TTAGGTTTCCTTTTCCTTTCGTGCTAG: 2.84 z-score
TTAGGTTTCTGGACTGGGTTAGTGCTA: 0.962 z-score
GACGGACCGGGGTATCGGGACGTGCTA: -0.172 z-score

A few entries again (block 3):
GCAUCUAUUUUCCAUAUAGUCAUCAAGAGACCAUUUUAUAAAACAUGGUAAGACCCUUUUUAAAACAAACUCCAGGCCCUUGGUUGCGGGUCGCUGGGUUAUUGGGGCAG: 0.906
AACUUUGUACUGUACGUCACAGUGAUGAGUGUGACAGCUCAGCUCUUUGAUUUCAUAGUGAGUUUUCUAAAAGACCAGCCGACUAGCUUUUGCAGACUUUGAACAGAACU: 0.306
AAGGCUUUGCGGCCUGCGCAGACUAUAUCCUGCUUCAGACUAGAUACAAUUGCCCCUUUUUAUAUAUACACCUCCACAAGACAUGCGUAUUAAACAGAUUGUCUCAUCGU: 0.304
UCUCGCCUGGACCCAAGAGAGGCGACAGCUGUGGCUGGGGCUCUUGGUUUCCAGAGGGUCUGGACUGGUUUGGGUGCUUUAAAAUAGAUAUUUAGUUCAGUGGUGCUUAU: 0.916
AAGCUGCCCGGGAGGGUGGGUGCAGACACAGGCUGAGGACCAGCCCUGGCCCUGCCCCGCCAUCUGCUUUCACCAAGCUGUCUCUCCACCGUGGCUUCCCUUCUCCCUCC: 0.37
CACAUGUUCUUUCUUUUCCUGAGUGAAAAGCAAAGGUCCCACGGUGUGUGCUGUGGUGCACCGCCUGGCUUUGGGGGUCCCGGAGGCAGGCUGCCUAGACUCACAGCCUC: 0.203
ACCUGCUGGAAGCUGCCAGCUGCCCGGCUGGCAAUGGUGUGAGUGUCUUGGCCCUGUCCCUGCCCUGGGGUCCAGCAGGUCAUCCCUCCCUUCUUCUCUCUCCUUUGGCG: 0.556
AUAAACAUGUUAAAUGCAGGAUAUUUCUGCUUGGGGCAUCUUUGUGAUUUGUACUUUCCUACAAUUUAGCACUUUAACUGACAAUGAUGGGGUUUAAACAUUUGACAGCC: 0.55
UUAAUCUGCUAUGAAUCAGUACCCAGAUGUUUAAUUACUGUACUUAUUAAAUCAUGAGGGCAAAAGAGUGUAGAAUGGAAAAAAGUCUCUUGUAUCUAGAUACUUUAAAU: 0.37
AAAAUUGAUGAUAUCUUAGGGUCAGAAUUGCCCUUUUUUUUUAUUUUGAAUGGGAAGUUCUCACUAAAACAAUCCUGAGAUUUCUUAAUUUCAUGGUUCUUUAAAUAUUA: 0.755
